Experimental data collected from several papers.
Numbered parts are unrelated; each lists some results of a single study. Positions count from the first letter of the parent shown.

Sample 1 — target: UBE2W UBC core domain (UniProt Q96B02); technique: yeast two-hybrid; medium: yeast; setting: mostly zero background; reference: not given; direction: higher = stronger interaction
B1: TRIM47 RING domain (UniProt Q96LD4); chain MDGSGPFSCPICLEPLREPVTLPCGHNFCLACLGALWPHRGASGAGGPGGAARCPLCQEPFPDGLQLR
B2: RNF11 RING domain (UniProt Q9Y3C5); chain RDGSEKKIRECVICMMDFVYGDPIRFLPCMHIYHLDCIDDWLMRSFTCPSCMEPVDAALLSS
B3: TRIM68 RING domain (UniProt Q6AZZ1); chain LVEAIVEEVACPICMTFLREPMSIDCGHSFCHSCLSGLWEIPGESQNWGYTCPLCRAPVQPRNLRP
B4: NHLRC1 RING domain (UniProt Q6VVB1); chain MREAEISLLECKVCFEKFGHRQQRRPRNLSCGHVVCLACVAALAHPRTLALECPFCRRACRGCDTSD
B5: TRIM32 RING domain (UniProt Q13049); chain NLDALREVLECPICMESFTEEQLRPKLLHCGHTICRQCLEKLLASSINGVRCPFCSKITRITSLTQ
B6: SHPRH RING domain (UniProt Q149N8); chain KTSGGVNPEPCPICARQLGKQWAVLTCGHCFCNECISIIIEQYSVGSHRSSIKCAICRQTTSHKEISY
Target sequence (chain): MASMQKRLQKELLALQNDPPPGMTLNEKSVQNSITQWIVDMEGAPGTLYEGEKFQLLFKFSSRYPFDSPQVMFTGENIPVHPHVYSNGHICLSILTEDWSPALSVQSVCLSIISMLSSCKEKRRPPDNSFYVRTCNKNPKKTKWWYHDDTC
Under “lacZ reporter activity”, `B1 (TRIM47 RING domain)` is recorded as 0.
Under “lacZ reporter activity”, `FLSKVEETFQCICCQELVFRPITTVCQHNVCKDCLDRSFRAQVFSCPACRYDLGRSYAMQ (UHRF1 RING domain (UniProt Q96T88))` is recorded as 0.
For `B2 (RNF11 RING domain)`, “lacZ reporter activity” read 0.
For `B3 (TRIM68 RING domain)`, “lacZ reporter activity” read 0.
`B4 (NHLRC1 RING domain)` — result for “lacZ reporter activity”: 0.
`EDVLSKDAGECAICLEELQQGDTIARLPCLCIYHKGCIDEWFEVNRSCPEHPSD (ZNRF2 RING domain (UniProt Q8NHG8))` — result for “lacZ reporter activity”: 0.
`B5 (TRIM32 RING domain)`: “lacZ reporter activity” 0.
`B6 (SHPRH RING domain)` — result for “lacZ reporter activity”: 0.

Sample 2 — technique: two-hybrid; reference: out of 4 tests; direction: higher = firmer interaction
Partner: ARF16 570-670 (Arabidopsis thaliana, UniProt Q93YR9)
B7: IAA16 (Arabidopsis thaliana, UniProt O24407); chain MINFEATELRLGLPGGNHGGEMAGKNNGKRGFSETVDLKLNLSSTAMDSVSKVDLENMKEKVVKPPAKAQVVGWPPVRSFRKNVMSGQKPTTGDATEGNDKTSGSSGATSSASACATVAYVKVSMDGAPYLRKIDLKLYKTYQDLSNALSKMFSSFTIGNYGPQGMKDFMNESKLIDLLNGSDYVPTYEDKDGDWMLVGDVPWEMFVDSCKRIRIMKGSEAIGLAPRALEKCKNRS
B8: ARF10 575-693 (Arabidopsis thaliana, UniProt Q9SKN5); chain LQGLETGHCKVFMESEDVGRTLDLSVIGSYQELYRKLAEMFHIEERSDLLTHVVYRDANGVIKRIGDEPFSDFMKATKRLTIKMDIGGDNVRKTWITGIRTGENGIDASTKTGPLSIFA
B9: ARF11 500-622 (Arabidopsis thaliana, UniProt Q9ZPY6); chain SPKEQKQQTSTRSRIKVQMQGTAVGRAVDLTLLRSYDELIKELEKMFEIEGELSPKDKWAIVFTDDEGDRMLVGDDPWNEFCKMAKKLFIYPSDEVKKMRSKSLLGDKGTIVNLESDQRTVHV
B10: IAA33 (Arabidopsis thaliana, UniProt Q9FKM7); chain MNSFEPQSQDSLQRRFHQDNSTTQQPRDTTTPFIPKPASKNHNNSNSSSGAAGRSFQGFGLNVEDDLVSSVVPPVTVVLEGRSICQRISLDKHGSYQSLASALRQMFVDGADSTDDLDLSNAIPGHLIAYEDMENDLLLAGDLTWKDFVRVAKRIRILPVKGNTRQVKRNE
B11: IAA13 (Arabidopsis thaliana, UniProt Q38831); chain MITELEMGKGESELELGLGLSLGGGTAAKIGKSGGGGAWGERGRLLTAKDFPSVGSKRAADSASHAGSSPPRSSSQVVGWPPIGSHRMNSLVNNQATKSAREEEEAGKKKVKDDEPKDVTKKVNGKVQVGFIKVNMDGVAIGRKVDLNAHSSYENLAQTLEDMFFRTNPGTVGLTSQFTKPLRLLDGSSEFVLTYEDKEGDWMLVGDVPWRMFINSVKRLRVMKTSEANGLAARNQEPNERQRKQPV
B12: IAA34 (Arabidopsis thaliana, UniProt Q9C5X0); chain MYCSDPPHPLHLVASDKQQKDHKLILSWKKPTMDSDPLGVFPNSPKYHPYYSQTTEFGGVIDLGLSLRTIQHEIYHSSGQRYCSNEGYRRKWGYVKVTMDGLVVGRKVCVLDHGSYSTLAHQLEDMFGMQSVSGLRLFQMESEFCLVYRDEEGLWRNAGDVPWNEFIESVERLRITRRNDAVLPF
Target sequence (chain): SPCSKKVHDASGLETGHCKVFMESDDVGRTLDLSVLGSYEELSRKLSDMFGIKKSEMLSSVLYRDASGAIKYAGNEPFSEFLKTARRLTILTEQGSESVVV
The positive tests of `B7 (IAA16)` is reported as 0.
`B8 (ARF10 575-693)` gave a positive tests of 0.
`B9 (ARF11 500-622)` gave a positive tests of 0.
With `B10 (IAA33)` the positive tests was 3.
`B11 (IAA13)` gave a positive tests of 0.
`B12 (IAA34)` has a positive tests of 1.

Sample 3 — target: CCNA1, cyclin fold, Cln2 fusion (human); technique: yeast growth competition, sequencing; medium: yeast; setting: strong parent motif; reference: not given; direction: higher = stronger binding
Starting sequence: viral docking peptide; YKVKRRLVFGADD; partner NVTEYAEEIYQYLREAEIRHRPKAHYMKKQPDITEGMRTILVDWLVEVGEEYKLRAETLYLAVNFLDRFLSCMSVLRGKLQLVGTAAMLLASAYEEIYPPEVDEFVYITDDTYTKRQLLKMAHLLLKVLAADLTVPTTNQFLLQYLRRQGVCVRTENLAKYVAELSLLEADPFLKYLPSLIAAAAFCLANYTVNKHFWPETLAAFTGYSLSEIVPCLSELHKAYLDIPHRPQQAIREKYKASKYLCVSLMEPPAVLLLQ
Under “normalised enrichment score”, `V3T` is recorded as 1.11.
Under “normalised enrichment score”, `V3F` is recorded as 0.784.
For `R6S`, “normalised enrichment score” read 1.15.
`G10R`: “normalised enrichment score” 1.42.
`A11S` — result for “normalised enrichment score”: 1.59.

Single results of other studies — read-out: peptide-MHC binding; form: peptide; concentration: concentration not given
Target: HLA class I histocompatibility antigen, A alpha chain, allele A*25:01 (Homo sapiens, UniProt P04439)
Under binding, `QFLSFASLF` is recorded as “inactive”.
For `MMWIPGWFG`, binding read “inactive”.

Repeated from above (sample 2):
`B8 (ARF10 575-693)` gave a positive tests of 0.
`B9 (ARF11 500-622)` gave a positive tests of 0.
